Published values gathered from unrelated publications.
Every numbered part comes from another study and shows a few of its results, in no order. Changes are numbered by the printed parent chain.

Set 1
Target: RNA binding protein fox-1 homolog 2, RRM domain, GST-SBP tag (RBFOX2, Homo sapiens, UniProt O43251-10, residues 100-194)
Method: RNA Bind-n-Seq
Molecule type: RNA
Medium: in vitro
Tested at: 365 nM
Setting: natural RNA segment, single round, ends assumed
Relative to: no-protein control
Reading: higher = stronger binding
Target sequence (chain): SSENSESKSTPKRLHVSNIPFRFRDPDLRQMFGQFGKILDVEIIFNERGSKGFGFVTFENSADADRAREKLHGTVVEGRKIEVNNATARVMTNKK
Strand	RBNS enrichment (R)
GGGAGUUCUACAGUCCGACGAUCCUGAGAGCAGCCCCUCCCCACCAUCCCUCCACAUGCUGCAAGGACAGACUGAAGGGCUGUGAGCAGGUGUAAGGGCUCCCACAUCCGUGAGCCUGUGUCCGCAGCUGCUGUGGAAUUCUCGGGUGCCAA	0.612
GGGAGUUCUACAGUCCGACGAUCUCUCAUCUCACUUAGGAUUGUACCCCAAAGUCCUACAUGAUUGGCUUUAAAUGUCCGGGAAAACUAAUUUCAGUAGCGUAGUUUGAUAGGUUAAAUGAGAUAGCAUUUUUUGGAAUUCUCGGGUGCCAA	4.7
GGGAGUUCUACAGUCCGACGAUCCUCUCUCUGCUCCUCACCCCCACCCCUGUACCCAGCCACCUUCCUGACUGGGAAGGACAUAAAAGGUUUAAUGUCAGGGUCAAACUACAUUGAGCCCCUGAGGACAGGGGUGGAAUUCUCGGGUGCCAA	0.204
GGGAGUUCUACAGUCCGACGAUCGGAAAAUUUGGGAGAAAUCUAAUCAUGCCUAUUAAGGAUGUAAGACAUUACAGCCUUAGAAGAAAGAUUGUGAAAAGCUGGGGAGAAAAUGCUUAAGGACAUGCUAGGGGUGGAAUUCUCGGGUGCCAA	2.42
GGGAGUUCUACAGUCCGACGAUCGUGGCAGUUGUUGCCUGAGCACCAAGUAACCCAAGCCACCUAUGUGACAACUUCUGGGCCCAGGAGUAAUUUCUCAGCAUUGAGGGUAAAAUAGGAUGGAGUGCUCUGUUUGGAAUUCUCGGGUGCCAA	0.528
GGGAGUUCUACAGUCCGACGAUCACAAACUUCACUCAUCAUUUGAAUACAGUAUUUACAGAGGAUGUUUGAGUUGAGAGCUUUUUUAGGUUUGAGGGGCUUGAUUUUUUUGUAAAUAAAAUUAUGCUUUGUGGUGGAAUUCUCGGGUGCCAA	0.571
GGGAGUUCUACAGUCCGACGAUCAGUGAAACUGCGAUACAACCCAGCUGGUAUUUUUGGCUAUUCAUGAGCUACUCAUGACUGAAGGGAAACUGCAGCUGGGAAGAGGAGCCUGUUUUUGUGAGAGACUUUUGUGGAAUUCUCGGGUGCCAA	0.222
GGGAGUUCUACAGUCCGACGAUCAUCUUCUGGGCCCAGAGUCAGGGUCUCUGUGUCCCCUGUGCCUCCUGGGGACUGCUGCUGUCCUGCCCUUGUAAGCCAUGGCUGAUCACUUUUGGUCAAUAUGUCAAAAUUGGAAUUCUCGGGUGCCAA	0.392
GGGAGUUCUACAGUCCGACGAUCAAAAAUUAAAUAAAACUAAUAUGAACAUAAAGAGGAAAUAAAAGGUACCUAACUUGGGCACAGCUGUAACUGAAGACCUAAUGAAGUAGUCAGAUGCUUACAACUAUUUAUGGAAUUCUCGGGUGCCAA	0.742
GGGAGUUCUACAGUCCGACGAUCUCCUUGACCAUGUCUCCCACUCCACCUGCAAGUGAUUGCUGCCAUCUGUCCUGGGUGGGAUGCACCGAGCUAGUCACGGGUGUCGGAUCAGAUCUUUUAAAAACACUUGUUGGAAUUCUCGGGUGCCAA	0.523
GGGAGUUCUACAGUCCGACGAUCAAAUGAUGACCCACUCUGGGUAUAAGCUUGAUUUCCUUUGUUGAGACUUACCCUUCAUUGAAGAGAAAAAGAAGACAGUCAAAAAAGGUCCAGGUUACAAAGUUCUCCUCUGGAAUUCUCGGGUGCCAA	0.296
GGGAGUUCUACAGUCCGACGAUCACGGAUCCUGCCGAGAGCCACGGACAUGUGGUUACAGAGGCGCAGGAGGGGAUCCACACAGCUGCAACGUGAGGACAGAAUCAGUGCUGUGAAUGACAGCCUGCCACUCCUGGAAUUCUCGGGUGCCAA	0.678

Set 2
Target: Histone acetyltransferase KAT6A, both winged helices, GST fusion (KAT6A, Homo sapiens, UniProt Q92794, residues 1-181)
Method: protein binding microarray
Molecule type: double-stranded DNA, one strand shown
Medium: in vitro
Tested at: not given
Setting: 8-mer, flanks averaged, mean of 2 arrays, mostly near background
Relative to: not given
Reading: higher = stronger binding
Target sequence (chain): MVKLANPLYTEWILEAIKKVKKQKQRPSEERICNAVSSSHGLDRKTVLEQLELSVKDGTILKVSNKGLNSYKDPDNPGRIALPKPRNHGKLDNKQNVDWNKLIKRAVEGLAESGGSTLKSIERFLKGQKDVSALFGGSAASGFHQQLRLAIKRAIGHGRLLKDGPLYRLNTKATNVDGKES
Strand	E-score
CAATTGCC	0.0473
CCAGCTAC	-0.222
AGCGATGG	0.039
CGTCGTTC	0.189
GTTAGTTA	0.139
CATGATTA	-0.0355
GAATCGTC	0.0126
ATGAGACG	0.113
CCCAATAC	-0.184
ACGTGCAA	-0.141
ATCAGCGA	0.0595
GCAGATGA	-0.147
ATAGTGAA	-0.119
AAAGTAGT	-0.133
ATTTCAGC	-0.193
TATACAAA	-0.0655

Set 3
Target: CCNF, cyclin fold, Cln2 fusion (human)
Method: yeast growth competition, sequencing
Medium: yeast
Setting: strong parent motif
Relative to: not given
Reading: higher = stronger binding
Parent: RBL2 docking peptide (human); STTRRRLFVENDS
Variant	normalised enrichment score
STTRRRLFVEHDS [N11H]	8.33
STTRRRFFVENDS [L7F]	1.13
STTRRRLFVEGDS [N11G]	9.08
STTRRRLFVENDA [S13A]	8.4
STTRRRLFVEPDS [N11P]	9.03
STTRRRLFVKNDS [E10K]	6.52
STTRRRLCVENDS [F8C]	1.32
STTRRRLFVENNS [D12N]	6.92
STTRRRLFVEVDS [N11V]	8.98
STTRWRLFVENDS [R5W]	0.613
STTRRRLFIENDS [V9I]	7.66
STWRRRLFVENDS [T3W]	5.94
STTRRRLFVHNDS [E10H]	7.66
STTRRRLFVENMS [D12M]	8.04
STTRRRLFKENDS [V9K]	8.5

Set 4
Target: Interferon regulatory factor 7, full length, phosphomimetic (IRF7, Homo sapiens, UniProt Q92985, residues 1-503, S471D/S472D/S475D/S476D/S477D/S483D/S484D/S487D)
UniProt Q92985, sequence (whole entry, unmodified, looked up): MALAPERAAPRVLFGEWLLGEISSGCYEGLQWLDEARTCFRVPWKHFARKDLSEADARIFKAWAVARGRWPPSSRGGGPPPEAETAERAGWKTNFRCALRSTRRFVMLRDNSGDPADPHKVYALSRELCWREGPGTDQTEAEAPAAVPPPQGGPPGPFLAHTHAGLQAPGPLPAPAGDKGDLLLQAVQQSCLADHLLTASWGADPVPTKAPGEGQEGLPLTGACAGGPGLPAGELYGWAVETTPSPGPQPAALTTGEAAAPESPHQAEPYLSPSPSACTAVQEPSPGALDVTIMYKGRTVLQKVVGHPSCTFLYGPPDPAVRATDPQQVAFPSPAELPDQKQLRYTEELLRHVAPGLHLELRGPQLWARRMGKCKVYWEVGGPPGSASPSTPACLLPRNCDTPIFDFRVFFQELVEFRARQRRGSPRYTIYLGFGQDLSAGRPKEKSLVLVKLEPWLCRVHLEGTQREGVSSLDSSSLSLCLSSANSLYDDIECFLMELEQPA
Method: protein-binding microarray
Molecule type: double-stranded DNA, one strand shown
Medium: in vitro
Tested at: 2200 nM top
Setting: 60-bp whole probe
Together with: salmon DNA 0.4 mg/ml
Relative to: random background probes
Reading: higher = stronger binding
Shared flanks, not repeated: GCCTAGCAC … GTCTTGATTCGCTTGACGCTGCTG
Strand	fitted relative affinity
TCAATTTCCATTATTGCACTGTGCTAG	2.21 z-score
GACGATTTCCGGTTTCGAGACGTGCTA	5.77 z-score
GACGGTTCCCTTTTCGTGACGTGCTAG	2.58 z-score
ACCATTTTGGTTTTCTCTATGTGCTAG	3.09 z-score
TCATATGTCCTGTCTACAACTGTGCTA	1.62 z-score
GCATCGTAAGCAAAAATGATGTGCTAG	-0.297 z-score
GACTATATCGGGTTTCGAGACGTGCTA	1.59 z-score
TTAGATATCAGACTGGAATAGTGCTAG	-0.446 z-score
TTAAATATCGGGTATCGATTAGTGCTA	-0.106 z-score
GACGGACTGAACACTGGGGACGTGCTA	-0.469 z-score
TTAGGACTGGACACTGGGTCAGTGCTA	-0.994 z-score
GACGGTATCCTTATCATGACGTGCTAG	0.626 z-score

A few entries again (set 2):
Strand	E-score
ATGAGACG	0.113
GTTAGTTA	0.139
CCCAATAC	-0.184
CAATTGCC	0.0473
CATGATTA	-0.0355
GCAGATGA	-0.147
ACGTGCAA	-0.141
ATCAGCGA	0.0595
ATAGTGAA	-0.119
